Published values from different studies.
± marks the error that the study gave. ≈ marks a conversion by molar mass, not a printed value.

CNC(C)Cc1ccc2c(c1)OCO2 (racemic)  diastolic pressure change (human; oral, 0.75 mg/kg, unit not given; baseline: pre-dose baseline): 6.7
CCCC(C(=O)c1ccc(O)c(O)c1)N1CCCC1 (stereo not drawn)  stability (human plasma; 25 µg/L, 24 h, Medium QC, room temperature; baseline: freshly fortified plasma): 3.8 % difference
COc1ccc2nc([S@@+]([O-])Cc3ncc(C)c(OC)c3C)[nH]c2c1  adverse events (human healthy; 40 mg, influenza-like illness): 0%
CCCCCCCCCCC(=O)O[C@H]1CC[C@H]2[C@@H]3CCC4=CC(=O)CC[C@]4(C)[C@H]3CC[C@]12C  testosterone concentration (human blood; 600 ng/mL, 30 min, 4 °C, NaF 5 mg/mL, K2 oxalate 4 mg/mL): 438 ng/dL
CN[C@@H](C)Cc1ccccc1  ED50 (seizure incidence; C57Bl/6J mice, both sexes; intraperitoneal, 2 h, dose as base): 78 mg/kg
CN[C@@](C)(C[18F])C(=O)O  tracer uptake (A549 tumour model; host not given, blood; 15 min, tumour-bearing): 3.2 %ID/g
Oc1ccc2c3c1O[C@H]1c4[nH]c5ccccc5c4C[C@@]4(O)[C@@H](C2)N(CC2CC2)CC[C@]314  log intrinsic permeability (rat; no efflux inhibition): -3.72
CC1N=C(c2ccccc2F)c2cc(NC3CCCCC3)ccc2NC1=O (stereo not drawn)  solubility (shake flask; PBS; 24 h, pH 7.4): 21.4 µM (≈ 7.82 µg/mL)
CCOC(=O)c1cncn1[C@@H](C)c1ccccc1  ID50 (serum corticosterone, inhibitor; Sprague-Dawley rat; intravenous, 15 min, 50% reduction, together with: ACTH1-24): 10.7 ± 1.2 mg/kg
CC(=O)NC[C@H]1CN(c2ccc(-c3ccc(CNCc4cnn[nH]4)cc3)c(F)c2)C(=O)O1  fraction unbound (THP-1 caseum surrogate; 5 µM, 4 h, 37 °C): 0.076 ± 0.019
N[C@@]1(c2ccccc2Cl)CCC[C@@H](O)C1=O  dose-normalized Cmax (female CD-1 mice, plasma; intraperitoneal, 5 mg/kg): 401 ± 18.3 ng/mL per mg/kg
CN(C)CCc1c[nH]c2ccccc12  half-life (metabolic stability; human, hepatocytes; 3.1 µM): 1.6 h
N[C@]1(c2ccccc2Cl)C[C@@H](O)CCC1=O  dose-normalized Cmax (female CD-1 mice, plasma; intraperitoneal, 5 mg/kg): 267 ± 8.5 ng/mL per mg/kg
Cc1ncc2n1-c1ccc(Cl)cc1C(c1ccccc1F)=NC2  AUC (healthy volunteers, plasma; oral, 7.5 mg single dose, day 1, geometric mean, alone): 92.5 ng·h/mL
NC1(c2ccccc2Cl)CCCCC1=O (racemic)  plasma concentration (male Wistar rats, plasma; intraperitoneal, 40 mg/kg single dose, up to 48 h): ≥ 5 ng/mL
CCC(=O)C(CC(C)N(C)C)(c1ccccc1)c1ccccc1 (stereo not drawn)  AUC(0-tau) (human, plasma; oral, 40 mg, day 1, steady state, dose-normalized, alone): 5700 ng·h/mL
Cc1ncc(OC[C@@]2(c3cccc(F)c3)C[C@H]2C(=O)Nc2ccc(F)cn2)c(C)n1  treatment-related adverse events (healthy human; 10 mg, together with: itraconazole): 6.7%
CN(C)C[C@H]1CCCC[C@]1(O)c1cccc(O)c1  drug liking versus placebo (visual analog scale; healthy non-drug abusers; oral, 20 mg, unit not given; baseline: placebo): -2
CN1C(=O)CC(=O)N(c2ccccc2)c2cc(Cl)ccc21  Cmin (CF-1 mouse, brain; intraperitoneal, 17 mg/kg): 0.012 ng/mg
CN([11CH3])C(=O)C(CCN1CCC(O)(c2ccc(Cl)cc2)CC1)(c1ccccc1)c1ccccc1  plasma free fraction (ultrafiltration; rhesus monkey (Macaca mulatta), arterial plasma; room temperature): 0.154 ± 0.018
COc1ccsc1CNCC[C@@]1(c2ccccn2)CCOC2(CCCC2)C1  AUC(0-t) (healthy human, normal renal function, plasma; intravenous, 1 mg single dose, arithmetic mean): 18 ng·h/mL
O=c1[nH]c2ccccc2n1CCCN1CCC(n2c(=O)[nH]c3cc(Cl)ccc32)CC1  brain uptake clearance Kin (in situ brain perfusion; CF-1 mouse, wild type, male; 1 µM, pH 7.4): 3.1 mL/100 g/min
COc1cccc(C2(O)CCCCC2CN(C)C)c1 (stereo not drawn)  Tmax (human, plasma; oral, 100 mg, single dose, fasted): 1.8 h
COc1ccc2c(c1)[C@]13CCCC[C@@H]1[C@H](C2)N(C)CC3  AUC(0-inf) (Wistar rat, both sexes, plasma; oral, 5 mg/kg, 2 h after pretreatment, together with: single TCE 100 mg/kg): 231 ± 62.4 ng·h/mL
C=C1C[C@@H]2[C@H](CC[C@]3(C)C(=O)CC[C@@H]23)[C@@]2(C)C=CC(=O)C=C12  median plasma concentration (LC-MS/MS; postmenopausal breast cancer women, plasma; oral, 25 mg/day, 2 h, CrCl up to 83.0 mL/min): 8 ng/mL
CNC(C)Cc1ccc2c(c1)OCO2 (stereo not drawn)  LD50 (C57BL/6J mouse both sexes; intraperitoneal, 2 h, as free base): 101 mg/kg
N[C@]1(c2ccccc2Cl)CC[C@@H](O)CC1=O  dose-normalized Cmax (male CD-1 mice, plasma; intraperitoneal, 5 mg/kg): 443 ± 20.1 ng/mL per mg/kg
CO[C@H]1/C=C/O[C@@]2(C)Oc3c(C)c(O)c4c(O)c(c(/C=N/N5CCN(C)CC5)c(O)c4c3C2=O)NC(=O)/C(C)=C\C=C\[C@H](C)[C@H](O)[C@@H](C)[C@@H](O)[C@@H](C)[C@H](OC(C)=O)[C@@H]1C  fraction unbound (THP-1 caseum surrogate; 5 µM, 4 h, 37 °C): 0.073 ± 0.006
Cc1ncc2n1-c1ccc(Cl)cc1C(c1ccccc1F)=NC2  terminal half-life (human CYP3A5*3/*3 non-expressers, serum; geometric mean, together with: ketoconazole 400 mg): 8.92 h
C[C@]1(COc2ccc(N3CCC(Oc4ccc(OC(F)(F)F)cc4)CC3)cc2)Cn2cc([N+](=O)[O-])nc2O1  fraction unbound (THP-1 caseum surrogate; 5 µM, 4 h, 37 °C): 0.0002 ± 2e-05
CNC(C)C(=O)c1ccc(C)cc1 (stereo not drawn)  ED50 (seizure incidence; C57Bl/6J mice, both sexes; intraperitoneal, 2 h, dose as base): 103 mg/kg
O=C([C@@H](O)CO)N1CC=C(c2c(F)cc(N3C[C@H](COc4ccon4)OC3=O)cc2F)CC1  fraction unbound (THP-1 caseum surrogate; 5 µM, 4 h, 37 °C): 0.176 ± 0.045
CN1CC[C@@]23CCCC[C@@H]2[C@@H]1Cc1ccc(O)cc13  MRT(0-inf) (Wistar rat, both sexes, plasma; oral, 5 mg/kg DEM, DEM 2 h after pretreatment, together with: QN 2.5 mg/kg single pretreatment): 5.41 ± 1.07 h
C[C@H]1CNCCc2ccc(Cl)cc21  plasma concentration (male Sprague-Dawley rat, plasma; subcutaneous, 3 mg/kg, 0 h, given alone): 0 ng/mL
C[C@H]1COc2c(N3CCN(C)CC3)c(F)cc3c(=O)c(C(=O)O)cn1c23  fraction unbound (THP-1 caseum surrogate; 5 µM, 4 h, 37 °C): 0.163 ± 0.031
CCCC(C(=O)c1ccc2c(c1)OCO2)N1CCCC1 (stereo not drawn)  stability (human plasma; 25 µg/L, 24 h, Medium QC, room temperature; baseline: freshly fortified plasma): 3.3 % difference

Excerpt of the above:
CO[C@H]1/C=C/O[C@@]2(C)Oc3c(C)c(O)c4c(O)c(c(/C=N/N5CCN(C)CC5)c(O)c4c3C2=O)NC(=O)/C(C)=C\C=C\[C@H](C)[C@H](O)[C@@H](C)[C@@H](O)[C@@H](C)[C@H](OC(C)=O)[C@@H]1C  fraction unbound (THP-1 caseum surrogate; 5 µM, 4 h, 37 °C): 0.073 ± 0.006
Cc1ncc2n1-c1ccc(Cl)cc1C(c1ccccc1F)=NC2  terminal half-life (human CYP3A5*3/*3 non-expressers, serum; geometric mean, together with: ketoconazole 400 mg): 8.92 h
C[C@]1(COc2ccc(N3CCC(Oc4ccc(OC(F)(F)F)cc4)CC3)cc2)Cn2cc([N+](=O)[O-])nc2O1  fraction unbound (THP-1 caseum surrogate; 5 µM, 4 h, 37 °C): 0.0002 ± 2e-05
CNC(C)C(=O)c1ccc(C)cc1 (stereo not drawn)  ED50 (seizure incidence; C57Bl/6J mice, both sexes; intraperitoneal, 2 h, dose as base): 103 mg/kg
O=C([C@@H](O)CO)N1CC=C(c2c(F)cc(N3C[C@H](COc4ccon4)OC3=O)cc2F)CC1  fraction unbound (THP-1 caseum surrogate; 5 µM, 4 h, 37 °C): 0.176 ± 0.045
CN1CC[C@@]23CCCC[C@@H]2[C@@H]1Cc1ccc(O)cc13  MRT(0-inf) (Wistar rat, both sexes, plasma; oral, 5 mg/kg DEM, DEM 2 h after pretreatment, together with: QN 2.5 mg/kg single pretreatment): 5.41 ± 1.07 h
